# Published values collected from several papers.
# Each line is one published result; not all experiments were run side by side. ± gives the spread as reported.
# DNMT1: DNMT1 1-1616 (Homo sapiens, UniProt P26358)
# UniProt P26358, sequence (whole entry, looked up): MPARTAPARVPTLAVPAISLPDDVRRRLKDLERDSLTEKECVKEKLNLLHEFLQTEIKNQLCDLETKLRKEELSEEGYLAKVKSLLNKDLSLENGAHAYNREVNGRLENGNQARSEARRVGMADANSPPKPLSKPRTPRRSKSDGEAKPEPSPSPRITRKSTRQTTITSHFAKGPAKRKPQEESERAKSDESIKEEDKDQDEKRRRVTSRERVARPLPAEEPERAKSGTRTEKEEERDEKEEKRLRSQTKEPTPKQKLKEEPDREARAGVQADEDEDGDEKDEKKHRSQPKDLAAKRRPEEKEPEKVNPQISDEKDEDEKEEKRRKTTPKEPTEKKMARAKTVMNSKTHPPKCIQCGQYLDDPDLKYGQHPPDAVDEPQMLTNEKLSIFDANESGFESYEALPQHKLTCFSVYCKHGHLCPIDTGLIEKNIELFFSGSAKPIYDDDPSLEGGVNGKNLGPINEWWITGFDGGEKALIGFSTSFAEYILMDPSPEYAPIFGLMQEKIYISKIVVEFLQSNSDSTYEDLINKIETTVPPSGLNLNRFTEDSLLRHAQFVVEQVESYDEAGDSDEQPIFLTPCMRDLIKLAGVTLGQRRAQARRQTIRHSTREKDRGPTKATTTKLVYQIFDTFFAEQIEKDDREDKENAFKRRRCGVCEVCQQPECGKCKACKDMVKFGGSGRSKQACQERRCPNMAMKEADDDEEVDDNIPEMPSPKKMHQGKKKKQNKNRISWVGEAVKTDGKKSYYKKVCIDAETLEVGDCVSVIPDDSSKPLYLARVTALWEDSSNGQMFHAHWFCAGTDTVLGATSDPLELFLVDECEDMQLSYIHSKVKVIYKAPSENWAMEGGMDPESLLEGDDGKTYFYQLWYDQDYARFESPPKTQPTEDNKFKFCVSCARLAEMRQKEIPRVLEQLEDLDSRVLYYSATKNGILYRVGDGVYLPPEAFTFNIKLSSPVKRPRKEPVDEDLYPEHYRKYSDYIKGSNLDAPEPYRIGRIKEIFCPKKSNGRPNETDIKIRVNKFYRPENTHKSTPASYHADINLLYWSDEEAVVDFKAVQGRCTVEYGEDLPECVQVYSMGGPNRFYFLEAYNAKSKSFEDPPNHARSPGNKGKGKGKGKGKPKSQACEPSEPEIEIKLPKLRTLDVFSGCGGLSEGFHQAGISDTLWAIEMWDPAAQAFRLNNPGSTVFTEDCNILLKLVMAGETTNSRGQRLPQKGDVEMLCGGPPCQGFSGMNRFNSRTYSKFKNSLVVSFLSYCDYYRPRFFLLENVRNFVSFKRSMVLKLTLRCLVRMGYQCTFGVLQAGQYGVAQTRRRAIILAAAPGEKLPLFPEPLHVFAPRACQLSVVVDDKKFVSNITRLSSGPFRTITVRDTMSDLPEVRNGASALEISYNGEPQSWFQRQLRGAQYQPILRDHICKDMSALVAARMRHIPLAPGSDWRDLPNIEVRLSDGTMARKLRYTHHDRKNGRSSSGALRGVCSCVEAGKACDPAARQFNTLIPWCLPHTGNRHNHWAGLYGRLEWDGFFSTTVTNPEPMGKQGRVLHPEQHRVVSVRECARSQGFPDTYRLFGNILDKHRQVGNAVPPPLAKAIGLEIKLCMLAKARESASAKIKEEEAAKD
# gabR full length assumed: gabR full length assumed (Bacillus subtilis, UniProt P94426)
# UniProt P94426, sequence (whole entry, looked up): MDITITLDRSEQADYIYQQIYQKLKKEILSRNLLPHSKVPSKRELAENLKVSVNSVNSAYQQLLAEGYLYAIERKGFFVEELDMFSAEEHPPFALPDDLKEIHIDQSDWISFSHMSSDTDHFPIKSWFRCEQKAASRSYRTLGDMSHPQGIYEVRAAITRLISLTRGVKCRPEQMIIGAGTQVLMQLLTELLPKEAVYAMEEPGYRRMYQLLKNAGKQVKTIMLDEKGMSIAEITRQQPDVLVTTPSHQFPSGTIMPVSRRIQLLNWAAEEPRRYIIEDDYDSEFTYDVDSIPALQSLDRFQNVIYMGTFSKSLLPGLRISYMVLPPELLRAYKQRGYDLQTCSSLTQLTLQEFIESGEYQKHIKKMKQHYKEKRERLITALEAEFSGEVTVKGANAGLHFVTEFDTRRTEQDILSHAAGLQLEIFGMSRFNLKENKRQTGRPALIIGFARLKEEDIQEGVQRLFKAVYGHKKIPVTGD
# TDG: TDG 1-410 (Homo sapiens, UniProt Q13569)
# UniProt Q13569, sequence (whole entry, looked up): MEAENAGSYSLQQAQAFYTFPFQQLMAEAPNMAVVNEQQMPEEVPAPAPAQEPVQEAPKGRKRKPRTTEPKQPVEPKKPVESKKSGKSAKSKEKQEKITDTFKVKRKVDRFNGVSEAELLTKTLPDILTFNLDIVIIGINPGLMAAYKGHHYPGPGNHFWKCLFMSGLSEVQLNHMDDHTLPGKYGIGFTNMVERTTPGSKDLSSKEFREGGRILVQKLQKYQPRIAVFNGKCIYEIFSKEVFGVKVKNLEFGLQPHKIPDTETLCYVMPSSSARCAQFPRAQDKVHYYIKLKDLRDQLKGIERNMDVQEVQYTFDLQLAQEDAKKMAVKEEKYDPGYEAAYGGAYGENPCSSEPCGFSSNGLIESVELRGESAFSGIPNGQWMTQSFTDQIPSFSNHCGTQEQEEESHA
# UniProt Q8IUH3, sequence (whole entry, looked up): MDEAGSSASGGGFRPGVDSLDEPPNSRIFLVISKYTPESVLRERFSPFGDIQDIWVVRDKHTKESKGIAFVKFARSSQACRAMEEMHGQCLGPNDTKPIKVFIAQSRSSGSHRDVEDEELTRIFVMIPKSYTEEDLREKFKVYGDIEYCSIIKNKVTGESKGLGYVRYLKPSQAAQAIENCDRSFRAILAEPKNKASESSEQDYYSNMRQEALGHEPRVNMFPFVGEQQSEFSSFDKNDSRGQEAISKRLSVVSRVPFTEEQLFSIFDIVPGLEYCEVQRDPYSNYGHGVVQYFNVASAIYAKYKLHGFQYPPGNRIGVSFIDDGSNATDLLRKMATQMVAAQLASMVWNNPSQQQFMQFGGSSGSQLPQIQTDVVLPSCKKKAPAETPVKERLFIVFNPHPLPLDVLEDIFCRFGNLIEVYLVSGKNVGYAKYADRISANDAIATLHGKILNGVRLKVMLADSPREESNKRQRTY
# UniProt P0C835, sequence (whole entry, looked up): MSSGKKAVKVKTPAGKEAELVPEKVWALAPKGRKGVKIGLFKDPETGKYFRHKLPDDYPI
# UniProt P0AE01, sequence (whole entry, looked up): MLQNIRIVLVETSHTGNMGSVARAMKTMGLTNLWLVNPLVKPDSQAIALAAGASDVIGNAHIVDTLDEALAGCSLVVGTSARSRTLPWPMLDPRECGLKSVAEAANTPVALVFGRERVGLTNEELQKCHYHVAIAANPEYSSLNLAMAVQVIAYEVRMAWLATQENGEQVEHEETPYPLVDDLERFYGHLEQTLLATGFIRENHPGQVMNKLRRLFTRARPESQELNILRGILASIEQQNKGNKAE
Strand,target,assay,test system,conditions,endpoint,result
AGGGGCGGGCGCGGGAGGAAGGGGGCGGGAGCGGGGCTG (G-quadruplex DNA; G4),DNMT1,ELISA,folded DNA,K+ 100 mM,Kd,9.6 ± 0.3 nM
CTTCTGATACCATCCATCAAAAAGTTATAATTGGTACTTTTATACCAAAGAGAAGTCAGAATGATAAGAAAATACCG (dsDNA (Bacillus subtilis)),gabR full length assumed,BLI,"double-stranded DNA, one strand shown",,Kd,11700 ± 5900 nM
TGAGGGTGGGTAGGGTGGGTAA (G-quadruplex DNA; G4),DNMT1,ELISA,folded DNA,K+ 100 mM,Kd,25.3 ± 0.4 nM
"CGCGGGGUGGAGCAGCCUGGUAGCUCGUCGGGCUCAUAACCCGAAGAUCGUCGGUUCAAAUCCGGCCCCCGCAACCA (tRNA (Escherichia coli); cloverleaf, unmodified)","trmJ 171-246 (Escherichia coli, UniProt P0AE01)",EMSA,folded RNA,"Mg2+ 5 mM, with: sinefungin 500 µM",binding,no binding
GTGTCACCACTGCTCACGTACAGAGCTG (dsDNA; fully paired duplex),TDG,fluorescence anisotropy,"double-stranded DNA, one strand shown",,Kd,63 ± 10 nM
CTTCTGATACCATCAAAAAGTTCGAATTGGTACTTTTCATCATACCAAAGAGAAGTCAGAATGATAAGAAAATACCG (dsDNA (Bacillus subtilis)),gabR full length assumed,BLI,"double-stranded DNA, one strand shown",,Kd,24.6 ± 11.9 nM
GATCCCCCAATGCTTCGTTTCGTATCACACACCCCAAAGCCTTCTGCTTTGAATGCTGCC (dsDNA; 60 bp duplex),"cren7 2-60 (Saccharolobus shibatae, UniProt P0C835)",EMSA,"double-stranded DNA, one strand shown",apparent,Kd,113 nM
UUCUUCUGUGGACUGUG (ssRNA),"RBM45 1-476 (Homo sapiens, UniProt Q8IUH3)",fluorescence polarization,RNA,,Kd,1370 ± 212 nM
"DNA 1 TCATGTACAGAGCTG / DNA 2 CAGCTCTGTACGTGA (dsDNA; 2'-F-arabino-T mispaired with G, CpG)",TDG,fluorescence anisotropy,double-stranded DNA,,Kd,124 ± 25 nM
CTTCTGATACCATCAAAAAGTTATAATTGGTACTTGACATCATACCAAAGAGAAGTCAGAATGATAAGAAAATACCG (dsDNA (Bacillus subtilis)),gabR full length assumed,BLI,"double-stranded DNA, one strand shown",,Kd,114 ± 23 nM

# Repeated from above:
Strand,target,assay,test system,conditions,endpoint,result
"DNA 1 TCATGTACAGAGCTG / DNA 2 CAGCTCTGTACGTGA (dsDNA; 2'-F-arabino-T mispaired with G, CpG)",TDG,fluorescence anisotropy,double-stranded DNA,,Kd,124 ± 25 nM
